# Assay results pooled from the literature.
# Each numbered part is a random draw from the data of one study; scales do not carry over between parts.

# Sample 1
# Target: RNA binding protein fox-1 homolog 2, RRM domain, GST-SBP tag (RBFOX2, Homo sapiens, UniProt O43251-10, residues 100-194)
# Method: RNA Bind-n-Seq
# Molecule type: RNA
# Sample: in vitro
# Concentration: 365 nM
# Setting: natural RNA segment, single round, ends assumed
# Relative to: no-protein control
# Reading: higher = stronger binding
Strand,RBNS enrichment (R)
GGGAGUUCUACAGUCCGACGAUCCAGGAACAGAAGGCAGCUGCUGCUUUCUGUGGAAACCUGGCCCCUCUGGAAUUGGCCUCUGUGGGCAUUGACUCGUCUUGGCCUAGGAGGCAUUGGUGCCUCCCUGGCAAUGGAAUUCUCGGGUGCCAA,0.588
GGGAGUUCUACAGUCCGACGAUCCAUUACCCAUCUACUGUCGCAUGGUAGGAUAGCUUUUUGUCUCUGAAUAUGUGAAUAACUUGACUUGCGUUGAUCUUUUUACAUAUUUAAUAAAAAAACUAUACGUUAAAUGGAAUUCUCGGGUGCCAA,0.614
GGGAGUUCUACAGUCCGACGAUCGUAGAAAGCAUUGAAAUGACUGUCAUUAACCACACAGUCCUGGAGGCAGAGAUGCAGUUACCUACCCUAGCUUUUGAUGGGUUCUCUUACCUGUAGUAGCCUUAUCCCUGUGGAAUUCUCGGGUGCCAA,0.398

# Sample 2
# Target: Sal-like protein 4, full length isoform A (SALL4, Homo sapiens, UniProt Q9UJQ4, residues 1-1053)
# Chain of UniProt Q9UJQ4 (whole entry, looked up): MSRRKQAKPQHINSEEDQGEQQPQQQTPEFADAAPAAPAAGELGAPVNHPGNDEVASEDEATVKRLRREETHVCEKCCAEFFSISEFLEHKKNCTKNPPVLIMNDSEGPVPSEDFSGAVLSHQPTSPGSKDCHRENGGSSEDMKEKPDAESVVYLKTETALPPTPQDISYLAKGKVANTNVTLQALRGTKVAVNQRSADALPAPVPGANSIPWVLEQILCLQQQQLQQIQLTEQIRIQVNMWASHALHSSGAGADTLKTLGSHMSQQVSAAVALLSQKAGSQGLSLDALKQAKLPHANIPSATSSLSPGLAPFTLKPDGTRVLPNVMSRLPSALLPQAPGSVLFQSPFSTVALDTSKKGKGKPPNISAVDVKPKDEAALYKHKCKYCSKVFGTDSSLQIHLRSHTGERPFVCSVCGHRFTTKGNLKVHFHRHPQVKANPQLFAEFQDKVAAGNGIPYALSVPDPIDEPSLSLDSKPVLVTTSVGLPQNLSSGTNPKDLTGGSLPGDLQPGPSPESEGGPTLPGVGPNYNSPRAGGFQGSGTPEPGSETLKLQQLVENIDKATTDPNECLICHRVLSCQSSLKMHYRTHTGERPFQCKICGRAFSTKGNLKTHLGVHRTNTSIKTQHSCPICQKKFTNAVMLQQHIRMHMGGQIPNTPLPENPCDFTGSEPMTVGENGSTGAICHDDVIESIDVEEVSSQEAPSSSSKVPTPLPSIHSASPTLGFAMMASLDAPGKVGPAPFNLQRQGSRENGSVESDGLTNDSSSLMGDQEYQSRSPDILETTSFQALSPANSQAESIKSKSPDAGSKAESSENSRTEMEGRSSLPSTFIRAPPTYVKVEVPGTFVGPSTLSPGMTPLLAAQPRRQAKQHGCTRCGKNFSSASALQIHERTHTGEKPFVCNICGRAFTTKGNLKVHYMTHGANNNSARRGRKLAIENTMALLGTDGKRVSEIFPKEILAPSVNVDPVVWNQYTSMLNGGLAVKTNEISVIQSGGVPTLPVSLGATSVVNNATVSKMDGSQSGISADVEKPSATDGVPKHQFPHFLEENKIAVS
# Method: universal PBM
# Molecule type: double-stranded DNA, one strand shown
# Sample: in vitro
# Concentration: 600 nM
# Setting: 8-mer, flanks averaged, mean of replicates
# Reading: higher = stronger binding
Strand,E-score
CACACGGG,-0.236
GAACGCAA,0.0644
GTTAGAAC,0.036

# Sample 3
# Target: Fragile X messenger ribonucleoprotein 1, C-terminal low-complexity region (Fmr1, Mus musculus, UniProt P35922)
# Method: RNA Bind-n-Seq
# Molecule type: RNA
# Sample: in vitro
# Concentration: 200 nM
# Setting: whole 134-nt RNA, ends assumed
# Together with: 150 mM KCl
# Relative to: input library
# Reading: higher = stronger binding
Strand,log2 enrichment
GGGAGUUCUACAGUCCGACGAUCCAAGUCCUGUGCUACACAUCGUAUGUACCGAAUCGGUUUGGUUUUUUUGGUUUGGAAAGUAUUAUGUUACGCCGUUCGGAUCUGCACUUCUGGAAUUCUCGGGUGUCAAGG,-0.596
GGGAGUUCUACAGUCCGACGAUCUCCUGUGCUACACAUCGUAUGUACCGAAUCGGGGUUUGGGGAAAGGGGUUUUUUUGGGGAAAGUAUUAUGUUACGCCGUUCGGAUCUGCAUGGAAUUCUCGGGUGUCAAGG,0.67
GGGAGUUCUACAGUCCGACGAUCUCCUCAAGUCCUGUGCUACACAUCGUAUGUACCGAAUCGGUGGGGUGGUGGAAAGUAUUAUGUUACGCCGUUCGGAUCUGCACUUCCAGCUGGAAUUCUCGGGUGUCAAGG,-0.306

# Single results of other studies
Substance,target,assay,system,conditions,how to read,measurement,result
"PhoQ, residues 284 288 289 292 302 303 WVSSAF","PhoP, residues 12 14 15 18 19 LHHVQ (Escherichia coli, UniProt P23836)","Sort-seq, refers to: YFP reporter",E. coli,"PhoQ-PhoP variant library, together with: 10 µM Mg2+","relative to: high Mg2+ state, higher = stronger signaling",fold induction,0.637

# For quick reference, copied from above (single results of other studies):
Substance,target,assay,system,conditions,how to read,measurement,result
"PhoQ, residues 284 288 289 292 302 303 WVSSAF","PhoP, residues 12 14 15 18 19 LHHVQ (Escherichia coli, UniProt P23836)","Sort-seq, refers to: YFP reporter",E. coli,"PhoQ-PhoP variant library, together with: 10 µM Mg2+","relative to: high Mg2+ state, higher = stronger signaling",fold induction,0.637
